Measurements from different studies.
A part holds a random share of what one study measured. Changes are numbered by the printed parent chain.

Block 1 — technique: protein binding microarray; molecule type: double-stranded DNA, one strand shown; medium: in vitro; tested at: not given; relative to: not given; reading: higher = stronger binding; endpoint: E-score
Target: Histone acetyltransferase KAT6A, winged helix 1, GST fusion (KAT6A, Homo sapiens, UniProt Q92794, residues 1-85)
Setting: 8-mer, flanks averaged, mean of 2 arrays, mostly near background
Target sequence (chain): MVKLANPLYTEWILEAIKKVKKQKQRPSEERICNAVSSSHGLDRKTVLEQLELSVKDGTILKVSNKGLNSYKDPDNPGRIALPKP
Sequence = ACCCACAG; result = -0.142
Sequence = ACTAAGGC; result = 0.052
Sequence = AACCTATC; result = -0.0669
Sequence = GCGCCAGC; result = 0.277
Sequence = ATACAATC; result = -0.124
Sequence = ATATCCGC; result = 0.224
Sequence = ACCCAGCC; result = -0.106
Sequence = CCCCTAGA; result = -0.219
Sequence = GTCCCACA; result = -0.0232
Sequence = CAATGATG; result = -0.0944
Sequence = GTTATACA; result = -0.105
Sequence = CGAGTAAC; result = -0.0471

Block 2 — technique: RNAcompete; molecule type: RNA; medium: in vitro; tested at: 20 nM; setting: 7-mer, probes averaged, single round; relative to: mean of 7-mers; reading: higher = stronger binding; endpoint: 7-mer Z-score
Target: PABPC1L2, full length, GST fusion (mouse, UniProt A0ABA7IW68)
Construct (chain): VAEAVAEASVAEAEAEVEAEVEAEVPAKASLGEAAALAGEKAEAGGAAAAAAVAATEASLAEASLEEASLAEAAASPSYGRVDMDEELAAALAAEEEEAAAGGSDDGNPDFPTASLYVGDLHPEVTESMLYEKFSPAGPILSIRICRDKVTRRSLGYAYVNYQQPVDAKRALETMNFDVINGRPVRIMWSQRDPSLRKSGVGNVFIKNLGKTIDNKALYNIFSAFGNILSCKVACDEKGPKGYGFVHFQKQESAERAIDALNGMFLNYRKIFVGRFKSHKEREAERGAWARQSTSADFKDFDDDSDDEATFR
Sequence = GGUUCCU; result = -0.173
Sequence = AUGUCUG; result = -0.15
Sequence = UGUACUG; result = -0.3
Sequence = UCUUGCA; result = -0.479
Sequence = GCAAUUC; result = -0.171
Sequence = UAUCGGC; result = 0.017
Sequence = CUUUACU; result = -0.0881
Sequence = AAUGAGU; result = -0.0337
Sequence = CGCGCGU; result = -0.467
Sequence = ACUCUUA; result = -0.295
Sequence = CUGCUUU; result = -0.369
Sequence = CACUGCA; result = -0.0772

Block 3 — target: CCNA1, cyclin fold, Cln2 fusion (human); technique: yeast growth competition, sequencing; medium: yeast; setting: weak parent motif; relative to: not given; reading: higher = stronger binding; endpoint: normalised enrichment score
Starting sequence: RBL1 docking peptide (human); GSAKRRLFGEDPP; partner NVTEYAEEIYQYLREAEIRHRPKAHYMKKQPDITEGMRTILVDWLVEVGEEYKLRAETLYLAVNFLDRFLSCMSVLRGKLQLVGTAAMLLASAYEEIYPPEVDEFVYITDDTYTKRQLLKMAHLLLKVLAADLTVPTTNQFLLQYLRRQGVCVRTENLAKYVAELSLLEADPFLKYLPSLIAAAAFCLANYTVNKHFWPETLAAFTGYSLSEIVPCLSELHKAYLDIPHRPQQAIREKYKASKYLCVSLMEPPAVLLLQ
Substitution = GSAKRRLFGEDPQ [P13Q]; result = 0.393
Substitution = GSWKRRLFGEDPP [A3W]; result = 0.595
Substitution = DSAKRRLFGEDPP [G1D]; result = 0.533
Substitution = GSAKRRLFQEDPP [G9Q]; result = 0.765
Substitution = GSAKLRLFGEDPP [R5L]; result = 0.603
Substitution = GSAKRRLHGEDPP [F8H]; result = 0.335

Mixed results
Molecule = PhoQ, residues 284 288 289 292 302 303 TTCLQL; target = PhoP, residues 12 14 15 18 19 SFCSL (Escherichia coli, UniProt P23836); test = Sort-seq, refers to: YFP reporter; system = E. coli; conditions = PhoQ-PhoP variant library, with: 10 µM Mg2+; how to read = relative to: high Mg2+ state, higher = stronger signaling; endpoint = fold induction; result = 2.16

Excerpt of the above (block 3):
Substitution = DSAKRRLFGEDPP [G1D]; result = 0.533
Substitution = GSAKRRLFQEDPP [G9Q]; result = 0.765
